# Published values gathered from unrelated publications.
# Several values in a cell are separate wells, animals, samples, runs or records. ± marks the error that the study gave.
Structure (SMILES),assay,test system,setting,scale,endpoint,value
COc1ccc2c(=O)n(C)c(-c3ccccc3)nc2c1,,"Sprague-Dawley rat, male, kidney","oral, 30 mg/kg, 0.5 h",baseline: kidney over plasma,tissue/plasma ratio,3.38
Cc1ccc(O)c(-n2nc3ccccc3n2)c1,exposure assessment,"human, age 1-2 years",sunscreen,,mean daily dermal uptake,1390 ng/kg body weight/day
Cc1ccc(Sc2ccccc2N2CCNCC2)c(C)c1,,healthy adult men,"oral, 2.5 mg single dose, treatment-emergent adverse events",,vomiting incidence,0%
O=C(c1cccnc1-c1ccncc1)N1CCC(O)(Cc2ccccc2)CC1,,"healthy Japanese adults, plasma","oral, 600 mg single dose",,AUClast/dose,6.43 ng·h/mL/mg
CO[C@H]1C[C@@H]2CC[C@@H](C)[C@@](O)(O2)C(=O)C(=O)N2CCCC[C@H]2C(=O)O[C@H]([C@H](C)C[C@@H]2CC[C@@H](O)[C@H](OC)C2)CC(=O)[C@H](C)/C=C(\C)[C@@H](O)[C@@H](OC)C(=O)[C@H](C)C[C@H](C)/C=C/C=C/C=C/1C,,healthy adult horses,"intravenous, 0.06 mg/kg, 4 h",,rectal temperature,37.4 ± 0.3 °C
C=CCN1CC(=O)N2[C@@H](Cc3ccc(O)cc3F)C(=O)N(Cc3cccc(N4CC(N5CCN(CC)CC5)C4)n3)C[C@@H]2N1C(=O)NCc1ccccc1,,advanced solid tumour patients,"oral, 100 mg twice daily, any grade, dose-escalation",,treatment-related diarrhoea,0%
Cc1cc(Nc2cc3ncccc3c(N[C@@H]3C[C@H]4CC[C@@H](C3)N4CCC#N)n2)n[nH]1,,healthy human subjects,"oral, 100 mg, 14 days, multiple ascending dose",,pruritus incidence,0%
COc1ncc(-c2nc3c(n2C(C)C)[C@H](c2ccc(Cl)cc2)N(c2cc(Cl)cn(C)c2=O)C3=O)c(OC)n1,LC-MS/MS,"human, plasma","oral, 200 mg, cycle 1 day 1, high-dose arm",,Cmax,1170 ng/mL
O=C1c2ccncc2C(=O)c2c1[nH]c1ccccc21,,"Sprague-Dawley rat, male, plasma","intravenous, 1 mg/kg",,plasma clearance,23.9 ± 11.2 mL/min
COc1ccc(C[C@@H](C)[C@@H](C)Cc2ccc(OC)c(OC)c2)cc1OC,,"beagle dog male, plasma","oral, 300 mg/kg/day, day 1",,Cmax,3320 ± 627 ng/mL
CCN1CCN(Cc2ccc(Nc3ncc(F)c(-c4cc(F)c5nc6n(c5c4)[C@H](C)CCC6)n3)nc2)CC1,,"human, plasma","100 mg single dose, median",,Tmax,3.95 h
CCn1cc(C(=O)N2CCOCC2)c(=O)c2cc(NC3Cc4ccccc4C3)cnc21,,"human, fed","oral suspension, 300 mg single dose, arithmetic mean",,half-life,3.87 h
COc1cc(N)c(Cl)cc1C(=O)NC1CCN(CCCOc2ccc(F)cc2)CC1OC (stereo not shown),,"male Hartley guinea pigs, anaesthetized","intravenous, 0.1 mg/kg over 10 min, after infusion",,mean blood pressure,30 ± 0.3 mmHg
Cn1cc(Nc2nccc(-c3ccc4c(c3)CN(C3COC3)CC[C@H]4NC(=O)c3cn(C(C)(C)C)nn3)n2)cn1,,"human, whole blood","150 mg twice daily, day 14",baseline: pre-dose baseline,CD8+ T cell count change,-7.02%
Nc1ncnc2c1ncn2[C@@H]1O[C@H](CO)C[C@H]1O,LDH release,human ESC-derived lung organoids,"concentration not given, 3 days",,cytotoxicity,18% and 23.4%
Cc1nc(-c2ccc(OCC(C)C)c(C#N)c2)sc1C(=O)O,,healthy Chinese subjects,"oral, 40 mg, fed",,subjects with hypertriglyceridaemia,5%
O=C(Nc1nc2cccc(-c3ccc(CN4CCS(=O)(=O)CC4)cc3)n2n1)C1CC1,refers to: dyspepsia,human rheumatoid arthritis patients,"oral, 150 mg once daily, 4 weeks, regardless of relatedness",,treatment-emergent adverse events,0%
CC(C)C[C@H](NC(=O)[C@@H](Cc1c[nH]c2ccccc12)NC(=O)[C@H](Cc1ccc(O)cc1)NC(=O)[C@H](CO)NC(=O)[C@H](Cc1c[nH]c2ccccc12)NC(=O)[C@H](Cc1c[nH]cn1)NC(=O)[C@@H]1CCC(=O)N1)C(=O)N[C@@H](CCCNC(=N)N)C(=O)N1CCC[C@H]1C(=O)NCC(N)=O,,"Chinese CPP children, overall","intramuscular, 22.5 mg, 12 months, day 1, month 6",,"patients, drug-related reproductive TEAEs",4.5%
CC(C)[C@@H](CS(=O)(=O)C(C)C)N1C(=O)[C@@](C)(CC(=O)O)C[C@H](c2cccc(Cl)c2)[C@H]1c1ccc(Cl)cc1,,"FVB mice Abcb1a/b Abcg2 knockout, plasma","oral, 20 mg/kg",,AUC(0-inf),7810 ± 661 ng·h/mL
CC/C(=C(\c1ccccc1)c1ccc(OCCN(C)C)cc1)c1ccccc1,,"male Hartley guinea pigs, anaesthetized","intravenous, 10 mg/kg group, baseline before infusion",,mean blood pressure,39 ± 0.3 mmHg
O=C1CC[C@H](N2Cc3cc(N4CCN(CC5CCN(c6ccc([C@@H]7c8ccc(O)cc8CC[C@@H]7c7ccccc7)cc6)CC5)CC4)ccc3C2=O)C(=O)N1,,"human, plasma","oral, 200 mg, 73.5 h, with: rosuvastatin 10 mg",,Clast,93.8 ng/mL
Oc1ccc(/C=C/c2cc(O)cc(O)c2)cc1,,"rat, azoxymethane-injected, blood at sacrifice",10 mg/kg,,leucine aminopeptidase,46 IU/L and 45 IU/L and 44 IU/L
CCc1cc(C(=O)NC)c2nccc(N3CCc4c(cc(Cn5ccnc5)cc4-c4cn(C)nc4C(F)(F)F)C3=O)c2c1,,Sprague Dawley rats,"oral, 50 mg/kg once daily, 7 days",,serum AST activity,102 ± 12.1 U/L
O=C(O)CCC(=O)O.[2H]C([2H])([2H])Oc1cc(C)c2[nH]ccc2c1CN1CC[C@@H](C2CC2)C[C@H]1c1ccc(C(=O)O)cc1,,"human, plasma","125 mg twice daily, day 10, multiple ascending dose",,CLss/F,2.86 L/h
CN1C(=O)[C@@H](NC(=O)c2nnc(Cc3ccccc3)[nH]2)COc2cccnc21,phase I multiple ascending dose,"human, male and female","oral, 200 mg, 14 days",,nasopharyngitis incidence,0%
Cc1c(C(=O)O)ccc2c3n(nc12)[C@@H]1[C@H](C3)N(CC2CC2)[C@@]2(C(=O)Nc3cc(Cl)ccc32)[C@H]1c1cccc(Cl)c1F,,"female BALB/c nude mice, plasma","oral, 2 mg/kg once daily, 2 h, SJSA-1 tumour-bearing",,plasma concentration,2450 nM and 2230 nM and 2050 nM and 1780 nM
CN(CCCN1CCN(C(=O)CN2CCN(CC(=O)[O-])CCN(CC(=O)[O-])CCN(CC(=O)[O-])CC2)CC1)c1ccc2nccc(C(=O)NCC(=O)N3CC(F)(F)C[C@H]3C#N)c2c1.[68Ga+3],,"mice, HT-1080.hFAP and HT-1080 wild-type xenografts, adrenal","iv, 500 pmol, 4 h post injection",,uptake,0.2 %IA/g
COc1c(N2C[C@@H]3CCCN[C@@H]3C2)c(F)cc2c(=O)c(C(=O)O)cn(C3CC3)c12,,"male Hartley guinea pigs, anaesthetized","intravenous, 5 mg/kg over 10 min, after infusion",,mean blood pressure,31 ± 0.2 mmHg
CC1(C)CCC(CN2CCN(c3ccc(C(=O)NS(=O)(=O)c4ccc(NCC5CCOCC5)c([N+](=O)[O-])c4)c(Oc4cnc5[nH]ccc5c4)c3)CC2)=C(c2ccc(Cl)cc2)C1,,patients on VA-based chemotherapy,"oral, dose not given, with: triazole antifungals",baseline: without triazoles,C0 fold change,1
Cc1c2oc3c(C)ccc(C(=O)N[C@@H]4C(=O)N[C@H](C(C)C)C(=O)N5CCC[C@H]5C(=O)N(C)CC(=O)N(C)[C@@H](C(C)C)C(=O)O[C@@H]4C)c3nc-2c(C(=O)N[C@@H]2C(=O)N[C@H](C(C)C)C(=O)N3CCC[C@H]3C(=O)N(C)CC(=O)N(C)[C@@H](C(C)C)C(=O)O[C@@H]2C)c(N)c1=O,LC-MS,"children with cancer, plasma","dose not given, 24 h",,maximum plasma concentration,4.8 µg/L
COc1cccc(-c2n[nH]c(SCc3ccccn3)n2)c1OC,,"Sprague-Dawley rat, plasma","oral, 10 mg/kg",baseline: female over male,Cmax ratio,0.46
CC[C@H](C)[C@H](NC(=O)CN)C(=O)N[C@@H](C)C(=O)N[C@@H](CC(=O)O)C(=O)N[C@@H](C)C(=O)N[C@H](C(=O)N[C@@H](CCCCN)C(=O)N[C@@H](C)C(=O)N[C@H](C(=O)N[C@@H](C)C(=O)N[C@@H](CCCCN)C(=O)N[C@@H](C)C(=O)N[C@@H](CC(C)C)C(=O)NCC(N)=O)[C@@H](C)CC)[C@@H](C)CC,circular dichroism at 222 nm,10 mM SDS,"100 µM, pH 4.0",,mean residue ellipticity,-805 deg cm2/dmol
CC(C)=CCC1=C(O)C(=O)c2ccccc2C1=O,cyclic voltammetry,CH2Cl2,"0.1 mM, with: 0.1 M Bu4NPF6",baseline: Ag/AgCl (sat. KOH),anodic peak potential,-1.44 V
CCNC(=O)c1ncccc1O,,,,,pKa (acidic),7.9
Cc1nc(O)n2ncc(Br)c2n1,,sheep erythrocytes,"1 h, pH 7.5",,maximum haemolysis,2.5%
CC(C)Nc1ccnc(Nc2cccc(-c3ccccn3)c2)n1,,MDCKII-WT cells,"10 µM, pH 7.4",,Papp (A to B),0.388 ± 0.29 ×10⁻⁶ cm/s
CC(C)(C)NCC(O)c1cc(O)cc(O)c1 (stereo not shown),,,,,pKa (basic),9.7
COc1ccc([C@@H](O)c2cc(-c3ncnc4cc(N5CCOCC5)ccc34)c(F)cc2Cl)nn1,,locally advanced rectal cancer patients,"100 mg, with: capecitabine and radiotherapy",,metabolism nutrition disorder TEAE,67%
CNC(=O)c1ccc(-c2cnc3ncc(Cc4ccc5ncccc5c4)n3n2)cc1F,,Japanese patients,"oral, 400 mg twice daily, grade 3/4",,Pancreatitis patients,6%
N#Cc1ccc2c(c1)[C@H]1CCCN(C(=O)c3ccc4[nH]cnc4c3)[C@H]1C2,,human females,"10 mg, day 7",,total testosterone level,1 nmol/L
COc1cc2[nH]c(C)c(-c3ccc(OC)c(F)c3F)c(=O)c2cc1Cl,,PAMPA,pH 7.4,,Papp,275 ×10⁻⁶ cm/s
Cn1c(C(F)(F)F)cc(=O)n(-c2cc(Oc3cccnc3OCC(=O)O)c(Cl)cc2F)c1=O,,"beagle dog, male, plasma","oral capsule, 300 mg/kg/day epyrifenacil, day 1, 90-day study",,Tmax,6 h
Cc1cc(NC(=O)c2cccc(NC(=O)/C=C/CN(C)C)c2)ccc1Nc1nccc(-c2cccnc2)n1,,"primary hepatocytes, rat Wistar male","1 µM, 90 min",,remaining compound,65.8%
OCCOCc1ccc(-c2noc(-c3ccc(OCC[18F])c(C(F)(F)F)c3)n2)cc1,,"human, extrapolated from Macaca mulatta","115 MBq, single injection",,gallbladder absorbed dose,47.8 mSv
O=C(Cc1ccc(OC(F)(F)F)cc1)Nc1cc(C2CC2)[nH]n1,,,,,pKa,3.68
CCN1CCN(Cc2ccc(NC(=O)c3ccc(C)c(NC(=O)c4cncc(-c5cccs5)c4)c3)cc2C(F)(F)F)CC1,,"C57BL/6 mouse, plasma","intraperitoneal, 15 mg/kg, single dose",,Vz/F,29.8 L/kg
CC12CC3(C)CC(C(=O)O)(C1)CC(C(=O)O)(C2)C3,,sheep erythrocytes,"1 h, pH 7.5",,maximum haemolysis,2.8%
CNC(=O)c1ccc(-c2cnc3ncc(Cc4ccc5ncccc5c4)n3n2)cc1F,"refers to: Headache, all grades",cancer patients,"oral, 600 mg twice daily, other expansion cohort, any causality",,patients with adverse event,17%
Cc1ccc([C@@H]2O[C@H](CO)[C@@H](O)[C@H](O)[C@H]2O)cc1Cc1ccc(-c2ccc(F)cc2)s1,refers to: inorganic phosphorus,Japanese type 2 diabetes patients,"200 mg, day 5, 24 h urine collection",baseline: baseline,urinary phosphate excretion change,74.7 mg
CNCc1ccc(-c2[nH]c3cc(F)cc4c3c2CCNC4=O)cc1,,human patients,"oral, dose not given, all grades, all doses",,incidence of pulmonary embolism,0%
COc1nc(-c2cc(C)c(N[C@@H](C)c3cc(F)cc(F)c3)nn2)ccc1-n1cnc(C)c1,,"rat Sprague-Dawley male, plasma","oral, 50 mg/kg daily for 9 days, 4 h after dose",,concentration,23700 ng/mL
CN1CCN(c2cccc3c2CCN(C(=O)/C=C/c2c(-n4cnnn4)ccc(Cl)c2F)[C@@H]3C(=O)Nc2ccc(C(=O)O)cc2)C(=O)C1,,healthy human subjects,"intravenous infusion, 1.5 mg/h, 2 h",,subjects with treatment-related adverse event,16.7%
CCN1/C(=C/C(C)=O)Sc2ccc(F)cc21,,cynomolgus monkey,"oral, 30 mg/kg, 2 h post-dose",baseline: pre-dose,QTc interval change,99 ± 3%
C[Si]1(C)O[Si](C)(C)O[Si](C)(C)O[Si](C)(C)O[Si](C)(C)O1,,,,,"intercept A, log KAW vs 1/T",24.9
Cc1c(-c2ccc(N3CCc4cccc(C(=O)Nc5nc6ccccc6s5)c4C3)nc2C(=O)O)cnn1CC12CC3(C)CC(C)(C1)CC(OCCNCC[C@H](O)CO)(C3)C2,,"beagle dog, male, anaesthetised","intravenous infusion, 0.3 mg/kg/min, 60 min",baseline: vehicle,QTcV interval change,11 ms
Cc1cc(-c2nccc3c2ccn3CC(=O)Nc2ccc(-c3cnccn3)cn2)ccn1,,human,"SAD part, single 7 mg dose",,subjects with Wheezing TEAEs,16.7%
CCc1cc2ncc(CN3CCN(c4ccc(C(=O)NC)nc4)CC3)cc2[nH]c1=O,,"female rat, blood","oral, 50 mg/kg/day, 4 weeks",baseline: vehicle control,white blood cell count ratio,0.64
O=C(/C=C/CCc1ccc(O)cc1)/C=C/c1ccc(O)cc1,,nude mouse MCF7 xenograft,"10 mg/kg, day 0",,body weight,19.4 ± 1.67 g

# Some of these lines once more:
Structure (SMILES),assay,test system,setting,scale,endpoint,value
Nc1ncnc2c1ncn2[C@@H]1O[C@H](CO)C[C@H]1O,LDH release,human ESC-derived lung organoids,"concentration not given, 3 days",,cytotoxicity,18% and 23.4%
Cc1nc(-c2ccc(OCC(C)C)c(C#N)c2)sc1C(=O)O,,healthy Chinese subjects,"oral, 40 mg, fed",,subjects with hypertriglyceridaemia,5%
O=C(Nc1nc2cccc(-c3ccc(CN4CCS(=O)(=O)CC4)cc3)n2n1)C1CC1,refers to: dyspepsia,human rheumatoid arthritis patients,"oral, 150 mg once daily, 4 weeks, regardless of relatedness",,treatment-emergent adverse events,0%
CC(C)C[C@H](NC(=O)[C@@H](Cc1c[nH]c2ccccc12)NC(=O)[C@H](Cc1ccc(O)cc1)NC(=O)[C@H](CO)NC(=O)[C@H](Cc1c[nH]c2ccccc12)NC(=O)[C@H](Cc1c[nH]cn1)NC(=O)[C@@H]1CCC(=O)N1)C(=O)N[C@@H](CCCNC(=N)N)C(=O)N1CCC[C@H]1C(=O)NCC(N)=O,,"Chinese CPP children, overall","intramuscular, 22.5 mg, 12 months, day 1, month 6",,"patients, drug-related reproductive TEAEs",4.5%
